Measurements gathered from unrelated publications.
Each line is one published result; not all experiments were run side by side. ± gives the spread as reported.
Cell line: HCT-116

| SMILES | read-out | method | time | IC50 |
| --- | --- | --- | --- | --- |
| O=c1[nH]c2ccccc2nc1/C=C/c1cccs1 | cell growth or viability | MTT | 72 h | 31.1 µM |
| Cc1cccc(C)c1NC(=O)NNC(=O)CSc1nc2ccccc2c(=O)n1-c1ccc(Cl)cc1 | – | – | – | 13.5 ± 1.1 µM |
| CN(C)C/C=C/C(=O)Nc1cccc(S(=O)(=O)N2CCC(NC(=O)c3n[nH]cc3NC(=O)c3c(Cl)cccc3Cl)CC2)c1 | cell growth or viability | ATP luminescence | 72 h | 0.0051 µM |
| O=C(CSc1nc2ccccc2c(=O)n1-c1ccc(Cl)cc1)NNC(=O)Nc1ccc(C(F)(F)F)cc1Cl | – | – | – | 28.8 ± 2.1 µM |
| O=C(/C=C/c1ccc(F)cc1)c1nc2ccccc2n1Cc1cn([C@@H]2OC[C@@H](O)[C@H](O)[C@H]2O)nn1 | cell growth or viability | LDH | 48 h | 5.1 µM |
| Cc1c(N)nc([C@H](CC(N)=O)NC[C@H](N)C(N)=O)nc1C(=O)N[C@H](C(=O)N[C@H](C)[C@@H](O)[C@H](C)C(=O)N[C@H](C(=O)NCCC1=N[C@@H](c2nc(C(=O)NCCCCN=C(N)N)cs2)CS1)[C@@H](C)O)[C@@H](O[C@@H]1O[C@@H](CO)[C@@H](O)[C@H](O)[C@@H]1O[C@H]1O[C@H](CO)[C@@H](O)[C@H](OC(N)=O)[C@@H]1O)c1cnc[nH]1 | cell growth or viability | resazurin | 96 h | 1.86 µg/mL |
| Nc1nnc(NC(=O)c2ccccc2)s1 | cell growth or viability | MTT | 48 h | 15.3 µM |
| N#CCSc1nc2c3cnn(C(=O)CNc4ccc(F)cc4)c3ncn2n1 | cell growth or viability | MTT | 48 h | 0.052 µM |
| CN1CCN(c2nc3ccccc3nc2/C=C/c2ccccc2F)CC1 | cell growth or viability | MTT | 72 h | 1.11 µM |
| COc1cc(OC)c(/C=N/NC(=O)c2ccc(-c3cc(OC)c(OC)c(OC)c3)nc2C)c(OC)c1 | cell growth or viability | MTT | – | 10.8 µM |
| O=c1c(/C=C/c2ccccn2)nc2ccccc2n1Cc1ccccc1 | cell growth or viability | MTT | 72 h | 16.1 µM |
| Cc1ccc(-n2c(SCC(=O)NNC(=O)Nc3c(C)cccc3C)nc3ccccc3c2=O)cc1 | – | – | – | 18.7 ± 1.4 µM |
| COc1cc(-c2ccc(-c3nnc(SCCCBr)o3)c(C)n2)cc(OC)c1OC | cell growth or viability | MTT | – | 20.4 µM |
| N=c1c2cnn(C(=O)CNc3ccc(F)cc3)c2ncn1N[C@@H]1O[C@H](CO)[C@@H](O)[C@H](O)[C@H]1O | cell growth or viability | MTT | 48 h | 0.503 µM |
| COC(CSc1nc2c3cnn(C(=O)CNc4ccc(C)cc4)c3ncn2n1)OC | cell growth or viability | MTT | 48 h | 0.51 µM |
| Cc1cc(-c2ccccc2)n(-c2nnc(NC(=O)c3ccccc3)s2)c(=O)c1C#N | cell growth or viability | MTT | 48 h | 68 µM |
| COc1cc(-c2ccc(C(=O)N/N=C/c3ccc(O)cc3)c(C)n2)cc(OC)c1OC | cell growth or viability | MTT | – | 11.7 µM |
| N#Cc1c(Nc2ccccc2)n2nc(NC(=O)c3ccccc3)sc2nc1=O | cell growth or viability | MTT | 48 h | 17 µM |
| COc1cc(-c2ccc(-c3nnc(SCC4CCCCC4)o3)c(C)n2)cc(OC)c1OC | cell growth or viability | MTT | – | 17.4 µM |
| CN1CCC2(CC1)C/C(=N\N=C\c1ccc(O)cc1)c1ccccc1O2 | – | – | 48 h | 2.68 ± 0.11 µM |
| COc1ccc(NC(=O)NNC(=O)CSc2nc3ccccc3c(=O)n2-c2ccc(Cl)cc2)cc1 | – | – | – | 51.5 ± 2.7 µM |
| COc1ccc(-n2c(SC/C(=N/O)c3ccc(Cl)cc3)nnc2-c2nnn(-c3ccc(S(N)(=O)=O)cc3)c2C)cc1 | cell growth or viability | MTT | 48 h | 9.9 µM |

| SMILES | read-out | method | time | IC50 |
| --- | --- | --- | --- | --- |
| CC(=O)OCCSc1nc2c3cnn(C(=O)CNc4ccc(F)cc4)c3ncn2n1 | cell growth or viability | MTT | 48 h | 0.009 µM |
| COc1cc([C@H]2Oc3cc(O)cc(O)c3C(=O)[C@@H]2O)ccc1O | cell growth or viability | MTT | 48 h | 36 µg/mL |
| N#CC(C(=O)Nc1nnc(NC(=O)c2ccccc2)s1)C(=S)Nc1ccccc1 (centres unmarked) | cell growth or viability | MTT | 48 h | 21.6 µM |
| Cn1c(=O)c(/C=C/c2ccccc2Cl)nc2ccccc21 | cell growth or viability | MTT | 72 h | 4.06 µM |
| Cc1ccc(NCC(=O)n2ncc3c(=N)n(N[C@@H]4O[C@H](CO)[C@@H](O)[C@H](O)[C@H]4O)cnc32)cc1 | cell growth or viability | MTT | 48 h | 0.074 µM |
| O=C(OC[C@H]1O[C@@H](OC(=O)c2cc(O)c(O)c(OC(=O)c3cc(O)c(O)c(O)c3)c2)[C@H](OC(=O)c2cc(O)c(O)c(OC(=O)c3cc(O)c(O)c(O)c3)c2)[C@@H](OC(=O)c2cc(O)c(O)c(OC(=O)c3cc(O)c(O)c(O)c3)c2)[C@@H]1OC(=O)c1cc(O)c(O)c(OC(=O)c2cc(O)c(O)c(O)c2)c1)c1cc(O)c(O)c(OC(=O)c2cc(O)c(O)c(O)c2)c1 | cell growth or viability | – | 48 h | ~20 µM |
| CNC(=O)c1cc(Oc2ccc(NC(=O)Nc3ccc(Cl)c(C(F)(F)F)c3)cc2)ccn1 | cell growth or viability | MTT | 48 h | 0.176 µM |
| O=C(CSc1nc2ccccc2c(=O)n1-c1ccc(Cl)cc1)NNC(=O)NCc1ccccc1 | – | – | – | 79.5 ± 4.3 µM |
| COc1ccc(-c2cc(-c3ccc(Cl)cc3)c3c(=O)[nH]c(=O)[nH]c3n2)cc1 | cell growth or viability | MTT | 48 h | < 5 µM |
| Cc1ccc(NCC(=O)n2ncc3c(=N)n(N[C@@H]4OC[C@@H](O)[C@H](O)[C@H]4O)cnc32)cc1 | cell growth or viability | MTT | 48 h | 0.099 µM |
| COc1cccc(/C=C/c2nc3ccccc3[nH]c2=O)c1OC | cell growth or viability | MTT | 72 h | 24.9 µM |
| O=C1c2c(O)cc(O)cc2OC(c2ccc(O)c(O)c2)C1O (centres unmarked) | cell growth or viability | MTT | 48 h | 32 µg/mL |
| O=c1[nH]c2ccccc2nc1/C=C/c1ccco1 | cell growth or viability | MTT | 72 h | > 50 µM |
| CSC(SC)=C(C#N)C(=O)Nc1nnc(NC(=O)c2ccccc2)s1 | cell growth or viability | MTT | 48 h | 14.7 µM |
| CCOc1ccc(/C=N/NC(=O)c2ccc(-c3cc(OC)c(OC)c(OC)c3)nc2C)cc1 | cell growth or viability | MTT | – | 25.2 µM |
| COc1ccc(-n2c(SCC(=O)NNC(=O)Nc3ccc(C)cc3)nc3ccccc3c2=O)cc1 | – | – | – | 57.1 ± 3.2 µM |
| N=c1c2cnn(C(=O)CNc3ccc(F)cc3)c2ncn1N[C@@H]1OC[C@@H](O)[C@H](O)[C@H]1O | cell growth or viability | MTT | 48 h | 0.093 µM |
| CN1CCN(c2ccc3nc(-c4c(N)c5c(F)cccc5[nH]c4=O)[nH]c3c2)CC1 | cell growth or viability | MTT | 72 h | 3.05 µM |
| N#CC(=Cc1ccc(Cl)cc1)C(=O)Nc1nnc(NC(=O)c2ccccc2)s1 | cell growth or viability | MTT | 48 h | 16.2 µM |
| O=c1[nH]c2ccccc2nc1/C=C/c1ccccn1 | cell growth or viability | MTT | 72 h | 0.27 µM |
| O=C(CSc1nc2ccccc2c(=O)n1-c1ccc(Cl)cc1)NNC(=O)Nc1ccccc1 | – | – | – | 9.52 ± 0.8 µM |
| COc1ccc(C=C(C#N)C(=O)Nc2nnc(NC(=O)c3ccccc3)s2)cc1 | cell growth or viability | MTT | 48 h | < 10 µM |
